Measurements from different studies.
Numbered parts are unrelated; each lists some results of a single study. “And” joins repeats or separate records; there may be more than shown.
UniProt P07949, sequence (whole entry, unmodified, looked up): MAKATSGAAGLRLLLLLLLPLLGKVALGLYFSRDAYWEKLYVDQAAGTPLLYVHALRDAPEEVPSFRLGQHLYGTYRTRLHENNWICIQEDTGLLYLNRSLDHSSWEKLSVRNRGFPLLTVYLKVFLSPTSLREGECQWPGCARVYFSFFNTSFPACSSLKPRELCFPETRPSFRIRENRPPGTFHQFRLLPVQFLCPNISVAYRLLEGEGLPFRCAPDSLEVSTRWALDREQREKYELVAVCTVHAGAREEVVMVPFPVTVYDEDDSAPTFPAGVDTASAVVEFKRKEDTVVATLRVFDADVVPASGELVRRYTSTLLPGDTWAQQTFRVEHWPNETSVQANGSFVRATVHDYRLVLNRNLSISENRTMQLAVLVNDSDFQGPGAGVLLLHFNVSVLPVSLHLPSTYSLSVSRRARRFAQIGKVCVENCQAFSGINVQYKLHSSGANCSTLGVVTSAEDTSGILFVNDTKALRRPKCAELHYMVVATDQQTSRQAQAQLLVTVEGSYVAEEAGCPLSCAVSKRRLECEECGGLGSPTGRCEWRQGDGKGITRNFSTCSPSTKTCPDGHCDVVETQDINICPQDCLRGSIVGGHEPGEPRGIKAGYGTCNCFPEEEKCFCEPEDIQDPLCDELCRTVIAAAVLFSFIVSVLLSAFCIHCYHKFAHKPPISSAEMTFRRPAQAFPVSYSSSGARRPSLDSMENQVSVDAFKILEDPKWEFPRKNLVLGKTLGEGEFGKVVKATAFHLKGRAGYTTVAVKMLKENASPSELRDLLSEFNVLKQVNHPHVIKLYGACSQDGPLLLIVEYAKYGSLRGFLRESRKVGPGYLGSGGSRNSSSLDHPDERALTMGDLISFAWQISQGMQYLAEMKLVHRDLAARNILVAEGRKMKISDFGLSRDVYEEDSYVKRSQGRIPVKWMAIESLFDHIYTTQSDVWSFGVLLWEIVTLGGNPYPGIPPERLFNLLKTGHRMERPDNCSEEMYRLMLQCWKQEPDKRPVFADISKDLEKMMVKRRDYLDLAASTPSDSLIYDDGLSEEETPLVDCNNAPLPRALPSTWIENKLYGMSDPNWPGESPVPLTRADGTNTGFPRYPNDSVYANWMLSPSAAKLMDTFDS
UniProt Q14164, sequence (whole entry, looked up): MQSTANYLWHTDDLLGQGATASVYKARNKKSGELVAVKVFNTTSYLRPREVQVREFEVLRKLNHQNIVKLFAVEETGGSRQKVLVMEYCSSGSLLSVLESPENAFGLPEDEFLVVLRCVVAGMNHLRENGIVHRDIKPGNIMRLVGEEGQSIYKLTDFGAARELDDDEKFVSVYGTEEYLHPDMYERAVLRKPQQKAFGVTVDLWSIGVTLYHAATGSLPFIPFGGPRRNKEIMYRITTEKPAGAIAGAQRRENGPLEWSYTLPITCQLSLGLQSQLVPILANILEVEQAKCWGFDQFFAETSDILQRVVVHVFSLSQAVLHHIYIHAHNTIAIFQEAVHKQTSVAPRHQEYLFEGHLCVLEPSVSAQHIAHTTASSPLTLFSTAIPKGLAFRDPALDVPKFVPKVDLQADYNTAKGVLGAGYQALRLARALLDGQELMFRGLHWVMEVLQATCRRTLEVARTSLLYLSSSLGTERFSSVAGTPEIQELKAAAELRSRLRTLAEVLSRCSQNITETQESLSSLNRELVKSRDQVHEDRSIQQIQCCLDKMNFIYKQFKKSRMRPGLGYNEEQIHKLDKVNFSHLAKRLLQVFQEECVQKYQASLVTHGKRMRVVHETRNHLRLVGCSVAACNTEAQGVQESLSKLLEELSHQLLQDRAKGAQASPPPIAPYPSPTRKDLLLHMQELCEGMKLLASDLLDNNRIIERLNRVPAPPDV
UniProt Q52WX2, sequence (whole entry, looked up): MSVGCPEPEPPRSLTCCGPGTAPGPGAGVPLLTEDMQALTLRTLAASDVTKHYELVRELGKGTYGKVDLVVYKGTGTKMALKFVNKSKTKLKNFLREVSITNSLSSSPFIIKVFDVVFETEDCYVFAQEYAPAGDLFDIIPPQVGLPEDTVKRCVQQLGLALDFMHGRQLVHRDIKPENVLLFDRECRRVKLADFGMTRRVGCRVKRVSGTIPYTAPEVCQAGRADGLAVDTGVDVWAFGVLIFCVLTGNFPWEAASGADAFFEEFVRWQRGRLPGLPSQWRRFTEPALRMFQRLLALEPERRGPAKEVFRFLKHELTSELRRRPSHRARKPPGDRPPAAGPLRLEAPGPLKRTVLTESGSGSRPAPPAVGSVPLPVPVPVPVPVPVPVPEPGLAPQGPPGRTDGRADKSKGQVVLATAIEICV
UniProt Q8TDR2, sequence (whole entry, looked up): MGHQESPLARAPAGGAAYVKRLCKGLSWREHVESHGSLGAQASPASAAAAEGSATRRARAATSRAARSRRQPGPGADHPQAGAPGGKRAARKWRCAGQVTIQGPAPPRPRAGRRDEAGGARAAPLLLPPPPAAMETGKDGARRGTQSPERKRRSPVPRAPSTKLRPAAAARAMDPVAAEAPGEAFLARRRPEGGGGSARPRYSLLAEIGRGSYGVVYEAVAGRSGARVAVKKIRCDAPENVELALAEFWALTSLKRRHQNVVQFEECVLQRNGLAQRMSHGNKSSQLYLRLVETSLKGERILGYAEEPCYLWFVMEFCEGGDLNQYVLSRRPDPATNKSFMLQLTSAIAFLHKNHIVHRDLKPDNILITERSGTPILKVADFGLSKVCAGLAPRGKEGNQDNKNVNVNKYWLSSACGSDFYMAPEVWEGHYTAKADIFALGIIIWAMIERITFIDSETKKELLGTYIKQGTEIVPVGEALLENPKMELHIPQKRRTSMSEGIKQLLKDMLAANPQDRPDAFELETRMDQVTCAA
UniProt Q13523, sequence (whole entry, looked up): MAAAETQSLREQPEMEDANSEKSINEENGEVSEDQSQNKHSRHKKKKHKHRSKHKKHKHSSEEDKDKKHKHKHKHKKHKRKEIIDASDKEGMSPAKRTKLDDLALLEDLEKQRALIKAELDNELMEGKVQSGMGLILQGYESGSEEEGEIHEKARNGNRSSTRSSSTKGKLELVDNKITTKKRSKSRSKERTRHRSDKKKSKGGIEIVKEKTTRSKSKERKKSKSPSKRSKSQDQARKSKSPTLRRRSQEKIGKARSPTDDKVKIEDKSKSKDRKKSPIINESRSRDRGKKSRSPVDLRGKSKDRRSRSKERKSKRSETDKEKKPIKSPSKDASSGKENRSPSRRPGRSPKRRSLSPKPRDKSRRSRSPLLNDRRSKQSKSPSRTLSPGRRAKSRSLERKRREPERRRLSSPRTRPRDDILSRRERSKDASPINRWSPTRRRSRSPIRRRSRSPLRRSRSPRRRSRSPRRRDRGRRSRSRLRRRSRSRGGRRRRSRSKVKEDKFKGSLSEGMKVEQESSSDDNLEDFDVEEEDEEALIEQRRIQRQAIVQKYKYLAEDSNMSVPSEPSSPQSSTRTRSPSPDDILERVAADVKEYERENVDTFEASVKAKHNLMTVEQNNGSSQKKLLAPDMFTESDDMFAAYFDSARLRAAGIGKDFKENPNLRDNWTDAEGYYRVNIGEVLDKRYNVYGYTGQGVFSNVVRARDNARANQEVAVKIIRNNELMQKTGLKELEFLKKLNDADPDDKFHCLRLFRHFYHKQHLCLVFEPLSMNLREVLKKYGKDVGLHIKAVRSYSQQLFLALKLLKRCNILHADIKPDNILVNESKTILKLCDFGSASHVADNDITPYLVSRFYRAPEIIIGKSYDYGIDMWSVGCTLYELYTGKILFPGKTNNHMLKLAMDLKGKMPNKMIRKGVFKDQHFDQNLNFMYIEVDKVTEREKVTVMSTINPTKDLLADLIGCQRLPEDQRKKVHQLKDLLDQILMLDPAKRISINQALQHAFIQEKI

Series 1 — read-out: cell-free assay; method: competition with immobilised ligand; concentration: 1 µM
Structure (SMILES): CCS(=O)(=O)c1cc2cc(C[C@](O)(CC(C)(C)c3ccc(F)cc3C(N)=O)C(F)(F)F)[nH]c2cn1
target	remaining binding [%]
IKBKE (Homo sapiens, UniProt Q14164)	100
STK35 (Homo sapiens, UniProt Q8TDR2)	100
SBK1 (Homo sapiens, UniProt Q52WX2)	87
PRPF4B (Homo sapiens, UniProt Q13523)	98
RET (Homo sapiens, UniProt P07949, M918T)	100
ALK (Homo sapiens, UniProt Q9UM73)	100
CDK2 (Homo sapiens, UniProt P24941)	94
EGFR (Homo sapiens, UniProt P00533, L858R)	100

Series 2 — cell line: mouse MPNST tumor cells; method: high-content nuclear imaging; refers to: cell number; concentration: 10 µM; time: 12 h; notes: mean of 2 replicates; reference: plate mean; reading: higher = more cells
SMILES	nuclei count
NCCCC(O)(P(=O)(O)O)P(=O)(O)O	0.242 z-score
CC(C)NC(=O)Cn1c(-c2ccc(F)c(Cl)c2)nc2ncc(OCCCN3CCOCC3)cc2c1=O	-0.0938 z-score
CC[C@@H]1C(=O)OC[C@@H]1Cc1cncn1C	1.12 z-score and -0.66 z-score
N#CC(c1ccc(Cl)cc1)c1c(Cl)cc(-n2ncc(=O)[nH]c2=O)cc1Cl (stereo not shown)	0.506 z-score
CCC1(C)CC(=O)NC1=O (stereo not shown)	0.0317 z-score
CC(C)(C)c1nc2c3cc[nH]c(=O)c3c3cc(F)ccc3c2[nH]1	-1.49 z-score

Series 3 — cell line: HH; method: CCK-8
Compound: CC(C)(C)c1cnc(CSc2cnc(NC(=O)C3CCN(C(=O)CCCSc4cccc5c4C(=O)N(C4CCC(=O)NC4=O)C5=O)CC3)s2)o1 (stereo not shown)
setting	viability
1000 nM	8.71% and 6.62%
1 nM	102% and 100%
500 nM	18.4% and 17.5%
100 nM	97.7% and 99.7%

Series 4 — read-out: enzyme activity; mode: inhibitor; concentration: 0.5 µM; reference: control
Target: Activated CDC42 kinase 1 (TNK2, Homo sapiens, UniProt Q07912)
UniProt Q07912, sequence (whole entry, looked up): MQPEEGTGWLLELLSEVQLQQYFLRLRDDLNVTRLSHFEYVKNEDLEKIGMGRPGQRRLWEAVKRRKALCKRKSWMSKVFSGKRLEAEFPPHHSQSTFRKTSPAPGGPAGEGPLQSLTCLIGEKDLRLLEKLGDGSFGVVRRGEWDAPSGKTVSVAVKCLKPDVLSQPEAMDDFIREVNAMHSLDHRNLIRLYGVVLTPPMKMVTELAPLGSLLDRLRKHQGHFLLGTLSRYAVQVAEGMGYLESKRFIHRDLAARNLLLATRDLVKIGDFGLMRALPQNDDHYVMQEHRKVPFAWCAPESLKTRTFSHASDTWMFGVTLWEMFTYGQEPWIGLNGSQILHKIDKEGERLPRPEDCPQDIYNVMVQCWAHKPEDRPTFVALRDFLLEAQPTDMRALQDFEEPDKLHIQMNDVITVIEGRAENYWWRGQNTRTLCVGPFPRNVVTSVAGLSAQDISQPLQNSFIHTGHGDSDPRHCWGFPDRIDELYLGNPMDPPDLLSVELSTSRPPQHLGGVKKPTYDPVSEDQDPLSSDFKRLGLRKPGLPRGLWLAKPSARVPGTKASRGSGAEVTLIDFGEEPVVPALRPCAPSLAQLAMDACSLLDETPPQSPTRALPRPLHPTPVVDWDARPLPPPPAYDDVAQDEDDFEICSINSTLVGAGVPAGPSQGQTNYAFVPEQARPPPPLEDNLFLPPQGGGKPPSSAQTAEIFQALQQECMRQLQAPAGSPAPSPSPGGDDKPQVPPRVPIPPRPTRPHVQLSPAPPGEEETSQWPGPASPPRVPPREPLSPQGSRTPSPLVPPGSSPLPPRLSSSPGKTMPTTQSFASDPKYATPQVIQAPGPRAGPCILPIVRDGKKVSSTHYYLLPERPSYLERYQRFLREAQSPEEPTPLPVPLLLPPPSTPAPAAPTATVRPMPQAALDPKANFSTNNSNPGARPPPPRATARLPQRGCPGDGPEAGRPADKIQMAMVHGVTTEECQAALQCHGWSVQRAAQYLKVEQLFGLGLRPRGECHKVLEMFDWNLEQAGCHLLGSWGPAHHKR
Compound	remaining activity [%]
O=C(Nc1cccc(Nc2cc(Nc3cccc(C(F)(F)F)c3)ncn2)c1)C1CC1	98.7
NCCNc1ncc(C(N)=O)c(Nc2cccc(C(F)(F)F)c2)n1	74.5
Nc1ccc2ncnc(NCCc3ccc(Oc4ccccc4)cc3)c2c1	102
COc1cc2ncnc(Nc3ccc(F)c(Cl)c3)c2cc1OCCCN1CCOCC1	72.8
COc1cc2nccc(Oc3ccc(NC(=S)NC(=O)c4ccccc4C)cc3)c2cc1OC	26.9
CNC(=O)c1cc(Oc2ccc(NC(=O)Nc3ccc(Cl)c(C(F)(F)F)c3)cc2)ccn1	97.6
OCC(O)CCON=C1C(c2c(O)[nH]c3ccccc23)=Nc2ccccc21 (stereo not shown)	4.93
Cc1ccc(Nc2nccc(N(C)c3ccc4c(C)n(C)nc4c3)n2)cc1S(N)(=O)=O	90.2
Cn1sc(=O)n(Cc2ccccc2)c1=O	101
CO[C@H]1C[C@@H]2CC[C@@H](C)[C@@](O)(O2)C(=O)C(=O)N2CCCC[C@H]2C(=O)O[C@H]([C@H](C)C[C@@H]2CC[C@@H](O)[C@H](OC)C2)CC(=O)[C@H](C)/C=C(\C)[C@@H](O)[C@@H](OC)C(=O)[C@H](C)C[C@H](C)/C=C/C=C/C=C/1C	98.5

Repeated from above (series 3):
setting	viability
100 nM	97.7% and 99.7%
